Results gathered from unrelated publications.
Lines come from different studies, so protocols differ. “And” joins repeats or separate records; there may be more than shown. ± marks the error that the study gave. Converted amounts (≈) assume the structure as drawn.

Structure (SMILES) | test | test system | setting | scale | measurement | value
Cc1cc(NC2CCN(C(=O)OC3CCN(C(=O)/C=C/CN(C)C)C3)CC2)n2ncc(C(C)C)c2n1 (centres unmarked) | CTCAE v4.0, item: Ascites | patients with advanced solid tumours | oral, dose not given, TIW, grade 3 or higher |  | patients with TEAE | 0%
O=C(Nc1cnccc1Cl)N1CCN(Cc2ccc3c(c2)OC(F)(F)O3)CC1 | item: Haematoma | human healthy young women | 100 mg, multiple dose |  | adverse event incidence | 33.3%
O=C(O)CCC(=O)O.[2H]C([2H])([2H])Oc1cc(C)c2[nH]ccc2c1CN1CC[C@@H](C2CC2)C[C@H]1c1ccc(C(=O)O)cc1 |  | healthy Chinese subjects | 200 mg, single ascending dose |  | TEAE hyponatremia | 0%
COc1ccc2nc(-c3ccccn3)c(N(C)c3ccc(F)cc3)n2c1 |  | male CD-1 mouse, fasted, plasma | oral, 50 mg/kg, with: 1-aminobenzotriazole 50 mg/kg |  | AUC(0-inf)/AUC(0-last) | 102%
Cn1cncc1-c1c(F)cncc1NC(=O)c1c(N)nn2cc(F)cnc12 | two-compartment PK model | xenograft-bearing mice, plasma |  |  | distribution rate constant k21 | 0.1 h⁻¹
Cc1nc2ccc(OCc3ccc(C(F)(F)F)cc3)cc2[nH]1 |  | Balb/c mouse, male, kidney | oral, 10 mg/kg, 72 h |  | tissue concentration | 2.5 ± 0.8 ng/g
Cc1ccc([C@@H]2O[C@H](CO)[C@@H](O)[C@H](O)[C@H]2O)cc1Cc1ccc(-c2ccc(F)cc2)s1 |  | Japanese type 2 diabetes patients | 100 mg, day 4, 24 h urine collection | reference: baseline | urinary potassium excretion change | 0.826 mEq
CNC(=O)c1ccccc1Nc1cc(Nc2ccc(N3CCOCC3)cc2OC)ncc1C(F)(F)F |  | aqueous buffer | 24 h, pH 6.8 |  | solubility | 10 µg/mL (≈ 19.9 µM)
CCc1cc(C(=O)NC)c2nccc(N3CCc4c(cc(Cn5ccnc5)cc4-c4cn(C)nc4C(F)(F)F)C3=O)c2c1 |  | Sprague Dawley rat | oral, 100 mg/kg twice daily, day 5, 7-day toxicology study |  | body weight | 233 ± 3.8 g
C[C@@H](O)[C@H](NC(=O)c1ccc(-c2ccccc2)cc1)C(=O)NO |  | octanol/buffer | pH 7.4 |  | logD | 1.97
CCOC(=O)N1C[C@@H](c2cc(F)c(O)c(F)c2)N[C@@H](c2ccc([C@H](C)CC)cc2)C1 | shake-flask, 1-octanol/buffer |  | pH 7.4 |  | logD | > 4.7
Cc1nc(C)c(-c2ccnc(Nc3ccc(F)cc3)n2)s1 |  | octanol/buffer | 67 µM, pH 7.4 |  | logD | 4.2
COc1ncc(-c2nc3c(n2C(C)C)[C@H](c2ccc(Cl)cc2)N(c2cc(Cl)cn(C)c2=O)C3=O)c(OC)n1 |  | human patients, plasma | oral, 25 mg, high-dose arm, cycle 2 day 1 |  | median half-life | 22.6 h
Cc1cn(-c2cc(NC(=O)c3ccc(C)c(Nc4nccc(-c5cccnc5)n4)c3)cc(C(F)(F)F)c2)cn1 | population PK model, typical value | human, both sexes, plasma | oral |  | secondary depot absorption rate constant | 0.14 h⁻¹
O=C(O)CN1CCCN2CCN(Cc3ccccc3)CCCN(CC1)Cc1cccc(n1)C2 |  | 64Cu complex | 24 h, pH 7.4, 37 °C, with: DOTA excess |  | intact complex | 96%
COc1cc(Nc2ncc3c(n2)-c2ccc(Cl)cc2C(c2c(F)cccc2OC)=NC3)ccc1C(=O)O |  | patients | oral, dose not given, grade 4, any attribution, with: pembrolizumab |  | decreased neutrophil count incidence | 13%
CC(C)=CCC1=C(O)C(=O)c2ccccc2C1=O | cyclic voltammetry | CH2Cl2, Bu4NPF6 | 0.1 mM | reference: Ag/AgCl sat. KOH | Epc1 cathodic peak potential | 0.85 V
C=CC(=O)NC1CCN(c2ncc3ncnc(Nc4ccc(Oc5ccc6c(c5)ncn6C)c(C)c4)c3n2)CC1 |  | healthy male volunteers | intravenous then oral, dose not given, at least 1 treatment-emergent event |  | subjects with adverse events | 29%
O=C1NCCc2nc(OCc3cccc(F)c3)ccc21 | item: tail pinch | Sprague-Dawley rat male | oral, 100 mg/kg, 1 h | direction not given | Irwin test score | 0

Structure (SMILES) | test | test system | setting | scale | measurement | value
Cn1cnc2c(F)c(Nc3ccc(Br)cc3Cl)c(C(=O)NOCCO)cc21 | population PK model | human, plasma | oral, first-order absorption model, fasted |  | absorption rate constant | 2.49 h⁻¹
CCN1/C(=C/C(C)=O)Sc2ccc(F)cc21 |  | cynomolgus monkey | oral, 100 mg/kg, 2 h post-dose |  | diastolic blood pressure | 74 ± 3 mmHg
CCOC(=O)c1c(NC(=O)CNC(C)C)sc2c1CCCCC2 |  | mice (male), brain | intraperitoneal, 5 mg/kg, 1 h |  | brain concentration | 177 ng/g
[O]=[Co].[O]=[Co][O][Co]=[O] |  | rat, female, urine, 24-h collection | oral gavage, single, 300 mg/kg (220 mg Co/kg), day 3, vehicle 0.5% HPMC |  | cobalt concentration | 172 µg/L
CN(C(=O)C(C)(C)c1cc(C(F)(F)F)cc(C(F)(F)F)c1)c1cnc(N2C[C@H]3COCCN3C[C@H]2CO)cc1-c1ccc(F)cc1[14CH3] | item: total radioactivity | human, male, whole blood | oral, 120 mg |  | last quantifiable time | 24 to 96 h
CC(C)(C)c1ccc([C@H]2COC[C@H](C3CCCCC3)N2)cc1 | shake-flask, 1-octanol/buffer |  | pH 7.4 |  | logD | > 4.7
CC(C)(F)C[C@H](N[C@@H](c1ccc(-c2ccc(S(C)(=O)=O)cc2)cc1)C(F)(F)F)C(=O)NC1(C#N)CC1 |  | PBS | 100 µM, 23 h, pH 8, 37 °C, with: cysteine 10 mM |  | cysteine adduct formation | 48%
O=C(Nc1ccc(Cl)c(Cl)c1)Nc1ccc(Cl)cc1O | reverse phase LC, C18 | acetonitrile gradient, 0.1% formic acid | converted from retention time | reference: Valko CHI standards | chromatographic hydrophobicity index | 118
CC(C)Nc1ccnc(Nc2cccc(C(C)(C)C)c2)n1 |  | MDCKII-WT cells | 10 µM, pH 7.4 | reference: Papp B-A over A-B | efflux ratio | 1.31
COc1ccccc1-n1nnnc1SCC(=O)Nc1ccccc1SC |  | octanol/buffer | pH 7.4 |  | logD | 3.14
CN(C)C/C=C/C(=O)Nc1cc2c(Nc3ccc(F)c(Cl)c3)ncnc2cc1O[C@H]1CCOC1 |  | EpiIntestinal tissue model | 300 µM, 3 h, pH 7.4 |  | efflux ratio | 1 ± 0.2
Cc1cc(-c2nccc3c2ccn3CC(=O)Nc2ccc(-c3cnccn3)cn2)ccn1 |  | healthy human volunteers | oral, 7 mg single dose, single ascending dose |  | general disorder TEAEs | 16.7%
CCC(C)n1ncn(-c2ccc(N3CCN(c4ccc(OCC5COC(Cn6cncn6)(c6ccc(Cl)cc6Cl)O5)cc4)CC3)cc2)c1=O (centres unmarked) |  | healthy human volunteers | oral, 200 mg, event Proteinuria, continued dosing |  | adverse events | 27%
C[C@@H]1NC(=O)[C@H](CCCCNC(=O)CO/N=C/C(=O)NCCCC[C@@H]2NC(=O)[C@@H](Cc3ccccc3)NC(=O)[C@H](CC(=O)O)NC(=O)CNC(=O)[C@H](CCCNC(=N)N)NC2=O)NC(=O)CNC(=O)[C@@H]2CCCN2C(=O)[C@H](CCCCNC(=O)CO/N=C/C(=O)NCCCC[C@@H]2NC(=O)[C@@H](Cc3ccccc3)NC(=O)[C@H](CC(=O)O)NC(=O)CNC(=O)[C@H](CCCNC(=N)N)NC2=O)NC(=O)[C@H](CCCCNC(=O)CN2CCCNCCNCCCNCC2)NC(=O)[C@H](CCCCNC(=O)CO/N=C/C(=O)NCCCC[C@@H]2NC(=O)[C@@H](Cc3ccccc3)NC(=O)[C@H](CC(=O)O)NC(=O)CNC(=O)[C@H](CCCNC(=N)N)NC2=O)NC(=O)CNC(=O)[C@@H]2CCCN2C(=O)[C@H](CCCCNC(=O)CO/N=C/C(=O)NCCCC[C@@H]2NC(=O)[C@@H](Cc3ccccc3)NC(=O)[C@H](CC(=O)O)NC(=O)CNC(=O)[C@H](CCCNC(=N)N)NC2=O)NC1=O [copper-64 labelled] | RP-HPLC | radiolabelling buffer | 24 h, 37 °C |  | intact fraction | 100%
C/C(=N\c1ccc(O)cc1)c1cc2ccccc2n1C |  | rat plasma | 0.78 ng/mL, 4 h, room temperature | reference: nominal concentration | remaining compound | 98.5 ± 9.7%
C=CC(=O)NC1CCN(c2ncc3ncnc(Nc4ccc(Oc5ccc6c(c5)ncn6C)c(C)c4)c3n2)CC1 |  | human, male, plasma | oral, 240 mg, adjusted geometric means | reference: fed over fasted | AUC0-tz ratio | 127%
CN(CCC(=O)O)C(=O)c1ccc2c(c1)CC[C@@H]1[C@@H]2CC[C@]2(C)C(c3cncc(F)c3)=CC[C@@H]12 |  | premenopausal women with endometriosis pain, serum | 60 mg twice daily, end of treatment, completers, median |  | direct bilirubin | 0.26 mg/dL
Nc1ncnc2c1ncn2[C@H]1C[C@@H]2OP(=O)(O)OC[C@H]3O[C@@H](n4cnc5c(N)ncnc54)C[C@@H]3OP(=O)(O)OC[C@H]2O1 |  | non-tumor-bearing mice, blood | intravenous, 1 mg/kg, toxicity study |  | MCH | 22.95 ± 0.06 pg
Nc1ncn([C@H]2C[C@H](O)[C@@H](CO)O2)c(=O)n1 | UHPLC-MS/MS | C57BL/6 mice, female, plasma | oral, 0.4 mg/kg |  | AUC(0-4 h) | 189 ng·h/mL

Structure (SMILES) | test | test system | setting | scale | measurement | value
CCN1CCN(Cc2ccc(Nc3ncc(F)c(-c4cc(F)c5nc6n(c5c4)[C@H](C)CCC6)n3)nc2)CC1 |  | human, plasma | 200 mg multiple dosing, mean |  | CL/F | 41.2 L/h
COc1cc2c(cc1OC)CN(CCc1ccc(NC(=O)c3cccc4c(=O)c5cccc(OC)c5[nH]c34)cc1)CC2 |  | Sprague Dawley rats, plasma | iv infusion, 8.9 mg/h/kg, 4 h |  | free plasma concentration | 49 ng/mL
Cc1nc2cccc(OCC(C)(C)C(=O)NC(C)C)c2c(N)c1C(=O)O |  | female Sprague-Dawley rat, plasma | dietary, 100 mg/kg/day | reference: day 90 over day 7 | Cmax ratio | 0.62
CC(C)(C)c1ccc(O)c(CN(Cc2cc(C(C)(C)C)ccc2O)C2CCC(NC(N)=O)CC2)c1 (centres unmarked) |  | mouse brain | 2000 ng/g, 3 months, 4 °C, refrigerator storage |  | recovery | 96.34 ± 0.15%
CCOc1c([C@H](C)n2nc(C)c3c(N)ncnc32)cc(Cl)c(F)c1[C@@H]1CNC(=O)C1 |  | patients, monotherapy | oral, 10 mg once daily, cycle 1 day 1 |  | Cmax | 791 ± 502 nM
C[Si]1(C)O[Si](C)(C)O[Si](C)(C)O[Si](C)(C)O1 |  | air/water | concentration not given |  | enthalpy of phase change | 17.7 kcal/mol
O=C(Nc1nc2cccc(-c3ccc(CN4CCS(=O)(=O)CC4)cc3)n2n1)C1CC1 | item: epigastric discomfort | human rheumatoid arthritis patients | oral, 300 mg once daily, 4 weeks, regardless of relatedness |  | treatment-emergent adverse events | 0%
CC(C)(C(=O)N1CCOc2c(C#N)cncc2C1)C(F)F | item: Insomnia | human | oral, 15 mg twice daily, 14 days, multiple ascending dose |  | subjects with adverse event | 12.5%
O=C(c1cc2cccnc2n1-c1ccc(Cl)c(Cl)c1)N1CC(F)(F)C1 |  | mouse, perfused liver | 5 mg/kg, 30 min |  | hepatocyte share of uptake | ~99%
O=C(/C=C/CN1CCCCC1)Nc1cc2c(Nc3ccc(F)c(Cl)c3)ncnc2cc1O |  | human, plasma | oral, 30 mg dacomitinib |  | metabolite to parent Cmax ratio | 0
CCOC(=O)N1C[C@@H](C2CCCCC2)N[C@@H](c2ccc(C(=O)OC)cc2)C1 | shake-flask, 1-octanol/buffer |  | pH 7.4 |  | logD | > 4.7
CCc1c(-c2ccccc2)c(-c2ccccc2)nn1-c1ccccc1-c1cccc(OCC(=O)O)c1 |  | Sprague-Dawley rat | intravenous |  | Vz observed | 1.82 L/kg and 1.64 L/kg and 1.75 L/kg
C[C@@H](Nc1cc(F)cc(F)c1)c1cc(C(=O)N(C)C)cc2c(=O)cc(N3CCOCC3)oc12 | item: Nausea | advanced solid tumour patients | oral, dose not given, dose finding |  | related serious adverse events | 1.6%
N#Cc1ccc2c(c1)[C@H]1CCCN(C(=O)c3ccc4[nH]cnc4c3)[C@H]1C2 |  | human | 40 mg, day 15 | reference: baseline | cortisol level change | -39 nmol/L
CNCc1ccc(-c2[nH]c3cc(F)cc4c3c2CCNC4=O)cc1 | item: Dysgeusia | human patients | oral, 600 mg twice daily, grade 3 |  | patients with adverse event | 0%
Cn1cc(-c2cn3nccc3c(-c3cnn([C@]4(CC#N)C[C@@H](C#N)C4)c3)n2)cn1 |  | healthy humans fed, plasma | oral, 400 mg once daily, day 10, geometric mean |  | peak to trough ratio | 26.9
N#Cc1cc([C@@H]2COC[C@H](c3cc(Cl)cc(Cl)c3)N2)ccc1F | shake-flask, 1-octanol/buffer |  | pH 7.4 |  | logD | > 4.1
C[C@@H]1CCO[C@H]2Cn3cc(C(=O)NCc4ccc(F)cc4F)c(=O)c(O[C@@H]4O[C@H](C(=O)O)[C@@H](O)[C@H](O)[C@H]4O)c3C(=O)N12 |  | human, haemodialysis patients, plasma | dose not given, steady state |  | Ctau | 1.2 µg/mL
